Assay results pooled from the literature.
Each line is one published result; not all experiments were run side by side. ± gives the spread as reported.
qscR DNA-bound: qscR, DNA-bound (Pseudomonas aeruginosa, UniProt G3XD77)
ABL2 SH2 domain: Tyrosine-protein kinase ABL2, SH2 domain (ABL2, Homo sapiens, UniProt P42684)
Chain of UniProt P42684 (whole entry, looked up): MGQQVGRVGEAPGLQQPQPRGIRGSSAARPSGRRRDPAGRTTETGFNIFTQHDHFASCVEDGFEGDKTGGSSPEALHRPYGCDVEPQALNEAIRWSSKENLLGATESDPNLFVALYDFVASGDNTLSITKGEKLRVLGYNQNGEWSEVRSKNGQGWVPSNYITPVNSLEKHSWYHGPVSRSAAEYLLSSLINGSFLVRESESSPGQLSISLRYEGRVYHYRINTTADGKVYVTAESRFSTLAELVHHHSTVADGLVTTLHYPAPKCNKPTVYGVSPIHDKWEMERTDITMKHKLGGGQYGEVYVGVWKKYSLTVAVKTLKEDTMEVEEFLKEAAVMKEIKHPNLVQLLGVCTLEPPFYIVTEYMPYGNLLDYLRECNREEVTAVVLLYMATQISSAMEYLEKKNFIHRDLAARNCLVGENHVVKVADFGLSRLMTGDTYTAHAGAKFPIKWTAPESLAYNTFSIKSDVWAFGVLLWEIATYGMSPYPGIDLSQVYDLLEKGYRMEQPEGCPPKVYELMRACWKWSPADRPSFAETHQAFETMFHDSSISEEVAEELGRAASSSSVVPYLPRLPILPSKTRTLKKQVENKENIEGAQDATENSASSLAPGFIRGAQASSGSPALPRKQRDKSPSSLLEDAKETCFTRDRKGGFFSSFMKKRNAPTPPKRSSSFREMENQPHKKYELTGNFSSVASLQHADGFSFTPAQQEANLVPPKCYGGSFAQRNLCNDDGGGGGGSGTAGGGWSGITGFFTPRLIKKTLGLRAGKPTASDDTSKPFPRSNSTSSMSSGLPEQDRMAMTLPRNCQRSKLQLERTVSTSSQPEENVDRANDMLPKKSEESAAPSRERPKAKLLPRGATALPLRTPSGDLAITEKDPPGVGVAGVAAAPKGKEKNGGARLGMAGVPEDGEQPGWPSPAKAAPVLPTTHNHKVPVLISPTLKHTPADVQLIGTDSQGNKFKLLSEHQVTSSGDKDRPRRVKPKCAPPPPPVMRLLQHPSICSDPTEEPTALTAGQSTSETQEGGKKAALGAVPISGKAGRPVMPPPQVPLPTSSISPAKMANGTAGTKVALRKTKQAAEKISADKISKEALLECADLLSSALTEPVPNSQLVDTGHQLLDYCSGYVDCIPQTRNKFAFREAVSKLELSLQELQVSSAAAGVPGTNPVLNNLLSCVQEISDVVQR
Chain of UniProt P10635 (whole entry, looked up): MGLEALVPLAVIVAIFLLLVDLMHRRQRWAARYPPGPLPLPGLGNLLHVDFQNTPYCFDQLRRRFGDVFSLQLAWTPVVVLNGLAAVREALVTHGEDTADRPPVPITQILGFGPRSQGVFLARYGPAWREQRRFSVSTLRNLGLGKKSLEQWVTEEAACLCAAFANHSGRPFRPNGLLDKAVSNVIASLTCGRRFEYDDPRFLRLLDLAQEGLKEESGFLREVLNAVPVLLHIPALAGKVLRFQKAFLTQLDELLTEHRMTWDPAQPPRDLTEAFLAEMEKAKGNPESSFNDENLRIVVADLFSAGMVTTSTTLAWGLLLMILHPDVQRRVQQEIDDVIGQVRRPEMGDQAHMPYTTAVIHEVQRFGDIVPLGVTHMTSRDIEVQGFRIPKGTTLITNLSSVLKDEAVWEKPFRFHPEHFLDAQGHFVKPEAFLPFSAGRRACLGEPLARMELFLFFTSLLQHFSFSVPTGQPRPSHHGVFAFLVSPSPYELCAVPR
Chain of UniProt P51449 (whole entry, looked up): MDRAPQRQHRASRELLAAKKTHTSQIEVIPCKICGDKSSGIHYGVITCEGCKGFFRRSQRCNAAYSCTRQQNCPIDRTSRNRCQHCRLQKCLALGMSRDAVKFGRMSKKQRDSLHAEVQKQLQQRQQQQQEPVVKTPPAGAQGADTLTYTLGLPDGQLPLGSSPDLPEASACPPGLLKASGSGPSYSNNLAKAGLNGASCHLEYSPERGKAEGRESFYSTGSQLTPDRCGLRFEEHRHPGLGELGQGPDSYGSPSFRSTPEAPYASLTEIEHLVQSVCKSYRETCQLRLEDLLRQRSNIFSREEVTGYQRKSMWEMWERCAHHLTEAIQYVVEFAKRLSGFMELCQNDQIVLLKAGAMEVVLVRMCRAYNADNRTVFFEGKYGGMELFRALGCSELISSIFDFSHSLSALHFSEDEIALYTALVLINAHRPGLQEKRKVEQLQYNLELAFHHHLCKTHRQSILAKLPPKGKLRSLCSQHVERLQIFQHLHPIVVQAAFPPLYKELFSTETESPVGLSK
Chain of UniProt Q08881 (whole entry, looked up): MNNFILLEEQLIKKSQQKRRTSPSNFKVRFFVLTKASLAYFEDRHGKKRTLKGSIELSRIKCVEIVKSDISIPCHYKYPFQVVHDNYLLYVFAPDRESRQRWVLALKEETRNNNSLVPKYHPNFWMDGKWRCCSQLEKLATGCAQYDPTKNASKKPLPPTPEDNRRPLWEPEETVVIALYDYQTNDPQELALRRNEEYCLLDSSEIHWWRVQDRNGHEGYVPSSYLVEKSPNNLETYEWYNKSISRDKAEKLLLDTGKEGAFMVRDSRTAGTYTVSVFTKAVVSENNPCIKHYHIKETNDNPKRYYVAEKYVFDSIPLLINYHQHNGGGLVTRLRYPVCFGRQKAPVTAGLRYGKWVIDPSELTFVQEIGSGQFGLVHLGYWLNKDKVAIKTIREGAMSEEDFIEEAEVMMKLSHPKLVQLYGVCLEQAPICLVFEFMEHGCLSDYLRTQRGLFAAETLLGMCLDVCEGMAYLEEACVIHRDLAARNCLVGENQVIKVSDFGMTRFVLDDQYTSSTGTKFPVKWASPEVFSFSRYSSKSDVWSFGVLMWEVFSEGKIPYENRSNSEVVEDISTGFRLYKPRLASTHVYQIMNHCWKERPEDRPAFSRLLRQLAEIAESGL
Chain of UniProt Q68CZ2 (whole entry, looked up): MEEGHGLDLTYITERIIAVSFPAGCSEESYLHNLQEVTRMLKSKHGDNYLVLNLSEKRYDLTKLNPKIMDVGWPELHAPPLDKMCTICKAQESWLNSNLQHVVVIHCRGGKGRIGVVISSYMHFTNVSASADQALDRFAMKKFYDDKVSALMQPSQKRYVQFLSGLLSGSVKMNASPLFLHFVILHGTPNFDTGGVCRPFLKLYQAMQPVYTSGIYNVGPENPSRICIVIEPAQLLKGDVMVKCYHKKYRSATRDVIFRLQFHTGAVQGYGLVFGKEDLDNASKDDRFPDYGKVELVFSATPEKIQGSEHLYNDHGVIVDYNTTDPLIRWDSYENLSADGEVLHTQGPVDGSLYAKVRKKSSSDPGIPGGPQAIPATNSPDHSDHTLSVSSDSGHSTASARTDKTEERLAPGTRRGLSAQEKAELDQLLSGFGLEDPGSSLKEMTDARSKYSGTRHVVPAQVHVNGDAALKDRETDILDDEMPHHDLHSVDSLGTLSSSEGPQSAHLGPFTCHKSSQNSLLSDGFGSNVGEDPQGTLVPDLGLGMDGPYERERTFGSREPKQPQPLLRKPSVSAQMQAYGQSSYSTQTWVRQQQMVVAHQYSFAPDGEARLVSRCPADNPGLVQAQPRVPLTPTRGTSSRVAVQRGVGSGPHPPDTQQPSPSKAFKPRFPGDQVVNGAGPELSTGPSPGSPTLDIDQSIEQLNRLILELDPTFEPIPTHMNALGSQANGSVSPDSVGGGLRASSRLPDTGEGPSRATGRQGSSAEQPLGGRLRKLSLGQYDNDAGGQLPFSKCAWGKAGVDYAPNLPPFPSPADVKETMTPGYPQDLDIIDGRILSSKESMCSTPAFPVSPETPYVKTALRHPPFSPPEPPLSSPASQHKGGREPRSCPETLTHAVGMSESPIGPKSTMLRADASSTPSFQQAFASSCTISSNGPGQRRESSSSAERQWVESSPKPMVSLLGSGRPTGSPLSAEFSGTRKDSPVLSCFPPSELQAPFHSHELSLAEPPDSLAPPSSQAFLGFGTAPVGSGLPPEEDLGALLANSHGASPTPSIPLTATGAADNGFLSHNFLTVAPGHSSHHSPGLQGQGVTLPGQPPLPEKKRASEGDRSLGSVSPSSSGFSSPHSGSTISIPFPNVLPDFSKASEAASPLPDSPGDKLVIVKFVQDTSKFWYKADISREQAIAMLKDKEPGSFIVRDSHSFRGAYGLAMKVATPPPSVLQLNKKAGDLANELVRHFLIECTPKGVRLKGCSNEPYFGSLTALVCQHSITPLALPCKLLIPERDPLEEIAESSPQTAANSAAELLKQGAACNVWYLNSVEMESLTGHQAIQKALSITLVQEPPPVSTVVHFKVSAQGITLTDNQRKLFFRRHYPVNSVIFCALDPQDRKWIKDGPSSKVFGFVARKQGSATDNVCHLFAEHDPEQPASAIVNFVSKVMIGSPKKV
Chain of UniProt Q16620 (whole entry, looked up): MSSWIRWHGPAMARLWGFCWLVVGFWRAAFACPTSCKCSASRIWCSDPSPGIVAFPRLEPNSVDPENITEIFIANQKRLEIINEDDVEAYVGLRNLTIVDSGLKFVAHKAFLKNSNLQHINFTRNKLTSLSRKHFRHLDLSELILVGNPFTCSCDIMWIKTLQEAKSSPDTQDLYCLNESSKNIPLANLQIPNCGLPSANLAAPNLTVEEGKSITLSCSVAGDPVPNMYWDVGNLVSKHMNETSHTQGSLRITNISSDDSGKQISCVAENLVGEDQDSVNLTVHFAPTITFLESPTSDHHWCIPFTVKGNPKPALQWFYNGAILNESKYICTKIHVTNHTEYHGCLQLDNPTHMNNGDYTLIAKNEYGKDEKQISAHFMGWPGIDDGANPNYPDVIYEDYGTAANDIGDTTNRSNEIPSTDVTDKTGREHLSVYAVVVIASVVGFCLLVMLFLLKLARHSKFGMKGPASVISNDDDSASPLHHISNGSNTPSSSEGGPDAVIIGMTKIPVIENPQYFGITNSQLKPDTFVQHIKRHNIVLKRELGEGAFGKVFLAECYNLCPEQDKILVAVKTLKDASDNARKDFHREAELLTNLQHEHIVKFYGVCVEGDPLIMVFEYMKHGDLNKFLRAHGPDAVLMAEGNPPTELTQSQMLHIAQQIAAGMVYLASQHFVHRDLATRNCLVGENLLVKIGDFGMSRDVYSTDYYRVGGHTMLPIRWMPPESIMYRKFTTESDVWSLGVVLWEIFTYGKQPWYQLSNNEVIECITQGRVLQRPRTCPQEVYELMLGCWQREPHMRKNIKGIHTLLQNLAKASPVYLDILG

Structure (SMILES)	target	assay	system	conditions	Kd
O=C(O)CCCN1CC=C(c2ccccc2)CC1	BRCA1-associated protein, ZnF-UBD domain (BRAP, Homo sapiens, UniProt Q7Z569)	–	–	–	> 1000 µM
CCC1COC(Cn2cncn2)(c2ccc(Cl)cc2Cl)O1 (stereo not drawn)	Cytochrome P450 2D6 (CYP2D6, Homo sapiens, UniProt P10635)	binding	–	20 min, pH 7.4, purified protein, 2% DMSO	73.3 µM
CC(=O)N[C@H]1[C@@H](OC[C@H](NC(=O)[C@H](CO)NC(C)=O)C(=O)N[C@@H](CO)C(=O)NCC(=O)O)O[C@H](CO)[C@H](O)[C@@H]1O	Vicia villosa lectin	glycan microarray	–	4 glycans per BSA	0.044 ± 0.013 µM
COc1cc(O)cc(/C=C/c2ccc(O)cc2)c1	O-methyltransferase (Sorghum bicolor, UniProt A0A1B6PFV1)	ITC	–	25 °C, apo enzyme	1.9 ± 0.209 µM
CC[C@H](C)[C@H](NC(=O)[C@H](Cc1ccc(O)cc1)NC(=O)[C@H](CCC(=O)O)NC(=O)[C@H](Cc1c[nH]cn1)NC(=O)CNC(=O)[C@H](CC(=O)O)NC(=O)[C@H](CO)NC(=O)[C@H](CO)NC(=O)[C@@H](NC(=O)c1ccc2c(c1)C(=O)OC21c2ccc(N(C)C)cc2Oc2cc(N(C)C)ccc21)C(C)C)C(=O)N[C@@H](Cc1ccc(OP(=O)(O)O)cc1)C(=O)N[C@H](C(=O)N[C@@H](CC(=O)O)C(=O)N1CCC[C@H]1C(=O)N[C@@H](CCSC)C(=O)N[C@@H](CCC(N)=O)C(=O)N[C@@H](CC(C)C)C(=O)N1CCC[C@H]1C(=O)N[C@@H](CC(=O)O)C(=O)O)C(C)C	Tyrosine-protein kinase ITK/TSK, SH2 domain (ITK, Homo sapiens, UniProt Q08881)	binding	–	–	0.863 µM
Nc1ncnc2c1ncn2[C@@H]1O[C@H](COP(=O)(O)O)[C@@H](O)[C@H]1O	Thermonuclease (nuc, Staphylococcus aureus, UniProt P00644)	binding, ligand-coupled folding kinetics	–	pH 7.0, 22 °C, 2.7 M urea	1300 µM
CSCC[C@H](NC(=O)[C@H](CC(=O)O)NC(=O)c1ccc2c(c1)C(=O)OC21c2ccc(N(C)C)cc2Oc2cc(N(C)C)ccc21)C(=O)N[C@@H](CO)C(=O)N[C@@H](CCCCN)C(=O)N[C@@H](CC(=O)O)C(=O)N[C@@H](CCC(=O)O)C(=O)N[C@@H](CO)C(=O)N[C@H](C(=O)N[C@@H](CC(=O)O)C(=O)N[C@@H](Cc1ccc(OP(=O)(O)O)cc1)C(=O)N[C@H](C(=O)N1CCC[C@H]1C(=O)N[C@@H](CCSC)C(=O)N[C@@H](CC(C)C)C(=O)N[C@@H](CC(=O)O)C(=O)N[C@@H](CCSC)C(=O)N[C@@H](CCCCN)C(=O)N[C@@H](CC(=O)O)C(=O)O)C(C)C)C(C)C	Tensin-3, SH2 domain (TNS3, Homo sapiens, UniProt Q68CZ2)	binding	–	–	0.34 µM
N=C(N)NCCC[C@H](N)C(=O)O	uncharacterized protein (Pelagibacter ubique, UniProt Q4FLC2)	isothermal titration calorimetry	Candidatus Pelagibacter ubique	direct titration	< 0.005 µM
Nc1ncnc2c1ncn2[C@@H]1O[C@H](COP(=O)(O)OP(=O)(O)OP(=O)(O)O)[C@@H](O)[C@H]1O	matB (Rhodopseudomonas palustris, UniProt Q6ND88, C106A/K488A/Q457C/R286C)	binding	Tris-HCl buffer	pH 7.5	6 ± 0.4 µM
CCCCCCCCCC(=O)CC(=O)Nc1ccccc1	qscR DNA-bound	DNA binding, ligand, EMSA	–	4 °C, saturating ligand	0.00775 µM
c1c2c(cc3c1OCO3)-c1cc3ccc4c(c3c[n+]1CC2)OCO4	RORC (Homo sapiens, UniProt P51449)	SPR	ligand-binding domain	–	59.7 µM
CC[C@H](C)[C@H](NC(=O)CNC(=O)[C@H](CC(=O)O)NC(=O)[C@H](Cc1ccc(OP(=O)(O)O)cc1)NC(=O)[C@@H]1CCCN1C(=O)[C@H](CCCCN)NC(=O)[C@H](CO)NC(=O)CNC(=O)[C@H](Cc1ccccc1)NC(=O)[C@@H](NC(=O)[C@H](CCSC)NC(=O)[C@H](CC(C)C)NC(=O)[C@H](CCC(=O)O)NC(=O)c1ccc2c(c1)C(=O)OC21c2ccc(N(C)C)cc2Oc2cc(N(C)C)ccc21)[C@@H](C)O)C(=O)N1CCC[C@H]1C(=O)N[C@@H](C)C(=O)N[C@@H](CO)C(=O)N[C@@H](CCC(=O)O)C(=O)N[C@@H](CC(=O)O)C(=O)O	Tyrosine-protein kinase SYK, SH2 domains (SYK, Homo sapiens, UniProt P43405)	binding	–	–	1.55 µM
O=c1c(O)c(-c2ccc(O)c(O)c2)oc2cc(O)cc(O)c12	NTRK2 (Homo sapiens, UniProt Q16620)	binding, tryptophan fluorescence quenching	–	extracellular domain	0.0053 ± 0.0019 µM
CC[C@H](C)[C@H](NC(=O)c1ccc2c(c1)C(=O)OC21c2ccc(N(C)C)cc2Oc2cc(N(C)C)ccc21)C(=O)N[C@@H](CCC(=O)O)C(=O)N[C@@H](CO)C(=O)N[C@@H](CO)C(=O)N[C@@H](CC(N)=O)C(=O)N[C@@H](Cc1ccc(O)cc1)C(=O)N[C@@H](CCSC)C(=O)N[C@@H](C)C(=O)N1CCC[C@H]1C(=O)N[C@@H](Cc1ccc(OP(=O)(O)O)cc1)C(=O)N[C@@H](CC(=O)O)C(=O)N[C@@H](CC(N)=O)C(=O)N[C@@H](Cc1ccc(O)cc1)C(=O)N[C@H](C(=O)N1CCC[C@H]1C(=O)N[C@@H](CO)C(=O)N[C@@H](C)C(=O)N[C@@H](CC(=O)O)C(=O)O)C(C)C	ABL2 SH2 domain	binding	–	–	0.028 µM
CC[C@@H](C)[C@@H](NC(=O)[C@@H](Cc1ccc(O)cc1)NC(=O)[C@H]1CCCN1C(=O)[C@@H](CCCNC(=N)N)NC(=O)[C@H](N)Cc1c[nH]cn1)C(=O)N[C@H](C)C(=O)N[C@H](Cc1c[nH]cn1)C(=O)N[C@H](CCCNC(=N)N)C(=O)N[C@H](CCCCNC(=O)c1cccc(S(=O)(=O)F)c1)C(=O)N[C@H](Cc1ccc(O)cc1)C(=O)N[C@H](CO)C(=O)N[C@H](Cc1ccccc1)C(N)=O	TFRC (Homo sapiens, UniProt P02786)	microscale thermophoresis	–	2 h, OFP-tagged protein	4.6 ± 5 µM
CCCCCCCCCCCC(=O)N[C@H]1CCOC1=O	qscR DNA-bound	DNA binding, ligand, EMSA	–	4 °C, saturating ligand	0.00681 µM
CC(=O)N[C@H]1[C@@H](O[C@H](C)[C@H](NC(C)=O)C(=O)N[C@H](C(=O)N[C@H](C(=O)NCC(=O)O)[C@@H](C)O[C@H]2O[C@H](CO)[C@H](O)[C@H](O)[C@H]2NC(C)=O)[C@@H](C)O[C@H]2O[C@H](CO)[C@H](O)[C@H](O)[C@H]2NC(C)=O)O[C@H](CO)[C@H](O)[C@@H]1O	Helix pomatia agglutinin	glycan microarray	–	20 glycans per BSA	0.0004 ± 0.0001 µM
CSCC[C@H](NC(=O)CNC(=O)[C@H](Cc1ccccc1)NC(=O)[C@H](CC(=O)O)NC(=O)CNC(=O)c1ccc2c(c1)C(=O)OC21c2ccc(N(C)C)cc2Oc2cc(N(C)C)ccc21)C(=O)N[C@@H](CO)C(=O)N[C@@H](CCCNC(=N)N)C(=O)N[C@@H](CC(=O)O)C(=O)N[C@H](C(=O)N[C@@H](Cc1ccc(OP(=O)(O)O)cc1)C(=O)N[C@@H](CO)C(=O)N[C@H](C(=O)N[C@@H](CC(=O)O)C(=O)N[C@@H](Cc1ccc(O)cc1)C(=O)N[C@@H](Cc1ccc(O)cc1)C(=O)N[C@@H](CCCNC(=N)N)C(=O)N[C@H](C(=O)N[C@@H](CC(=O)O)C(=O)O)C(C)C)[C@@H](C)O)C(C)C	ABL2 SH2 domain	binding	–	–	0.444 µM

Some of these lines once more:
Structure (SMILES)	target	assay	system	conditions	Kd
Nc1ncnc2c1ncn2[C@@H]1O[C@H](COP(=O)(O)OP(=O)(O)OP(=O)(O)O)[C@@H](O)[C@H]1O	matB (Rhodopseudomonas palustris, UniProt Q6ND88, C106A/K488A/Q457C/R286C)	binding	Tris-HCl buffer	pH 7.5	6 ± 0.4 µM
CC(=O)N[C@H]1[C@@H](OC[C@H](NC(=O)[C@H](CO)NC(C)=O)C(=O)N[C@@H](CO)C(=O)NCC(=O)O)O[C@H](CO)[C@H](O)[C@@H]1O	Vicia villosa lectin	glycan microarray	–	4 glycans per BSA	0.044 ± 0.013 µM
CCCCCCCCCCCC(=O)N[C@H]1CCOC1=O	qscR DNA-bound	DNA binding, ligand, EMSA	–	4 °C, saturating ligand	0.00681 µM
